Measured values collected from several papers.
Parts stem from different laboratories: compare values within a part only. Substitutions count along the parent as printed.
UniProt P17106, sequence (whole entry, looked up): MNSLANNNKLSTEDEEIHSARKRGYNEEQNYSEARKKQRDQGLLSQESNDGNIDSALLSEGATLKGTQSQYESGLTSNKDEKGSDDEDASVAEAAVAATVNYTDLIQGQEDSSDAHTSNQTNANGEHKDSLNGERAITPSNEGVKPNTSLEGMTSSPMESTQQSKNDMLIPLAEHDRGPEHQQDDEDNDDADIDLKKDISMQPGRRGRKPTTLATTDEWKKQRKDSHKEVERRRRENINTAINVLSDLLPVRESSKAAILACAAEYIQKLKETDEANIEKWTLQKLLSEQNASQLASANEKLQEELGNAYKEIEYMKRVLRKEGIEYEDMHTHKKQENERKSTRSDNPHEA
UniProt P61075, sequence (whole entry, looked up): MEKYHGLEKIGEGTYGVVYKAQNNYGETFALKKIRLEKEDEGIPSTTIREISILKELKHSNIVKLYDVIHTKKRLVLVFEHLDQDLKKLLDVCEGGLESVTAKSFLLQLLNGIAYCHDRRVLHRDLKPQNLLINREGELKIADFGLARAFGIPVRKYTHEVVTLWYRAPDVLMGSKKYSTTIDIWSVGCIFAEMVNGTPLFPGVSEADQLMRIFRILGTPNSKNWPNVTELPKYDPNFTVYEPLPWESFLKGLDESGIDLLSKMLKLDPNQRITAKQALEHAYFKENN
UniProt P62344, sequence (whole entry, looked up): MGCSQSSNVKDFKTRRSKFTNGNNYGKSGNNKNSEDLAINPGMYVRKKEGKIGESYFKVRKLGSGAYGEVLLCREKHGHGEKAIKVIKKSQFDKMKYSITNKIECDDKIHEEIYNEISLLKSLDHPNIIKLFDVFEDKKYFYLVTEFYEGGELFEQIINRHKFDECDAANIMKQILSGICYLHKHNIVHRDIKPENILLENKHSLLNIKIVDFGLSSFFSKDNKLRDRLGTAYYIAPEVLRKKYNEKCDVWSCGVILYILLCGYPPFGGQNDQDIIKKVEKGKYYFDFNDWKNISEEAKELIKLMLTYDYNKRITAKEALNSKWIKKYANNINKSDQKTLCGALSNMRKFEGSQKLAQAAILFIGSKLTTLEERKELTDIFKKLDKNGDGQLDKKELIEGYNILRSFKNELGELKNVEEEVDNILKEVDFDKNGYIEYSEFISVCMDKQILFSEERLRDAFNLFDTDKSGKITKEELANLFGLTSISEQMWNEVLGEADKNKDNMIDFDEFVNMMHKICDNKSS

Block 1
Cell line: HaCaT
Tested at: 100 µM
Time: 18 h
| Structure (SMILES) | viability |
| --- | --- |
| CN1C[C@H](C(=O)N[C@]2(C)O[C@@]3(O)[C@@H]4CCCN4C(=O)[C@H](Cc4ccccc4)N3C2=O)C=C2c3cccc4[nH]cc(c34)C[C@H]21 | 62.1% |
| C[C@H]1CNCCc2ccc(Cl)cc21 | 110% |
| NC(=O)CN1CCCC1=O | 94.3% |

Block 2
Target: Dual specificity tyrosine-phosphorylation-regulated kinase 1B (DYRK1B, Homo sapiens, UniProt Q9Y463)
Effect on: enzyme activity
Mode: inhibitor
Technique: radiometric
Tested at: 0.5 µM
| Structure (SMILES) | remaining activity [%] |
| --- | --- |
| Cc1ccc(NC(=O)c2ccc(CN3CCN(C)CC3)cc2)cc1Nc1nccc(-c2cccnc2)n1 | 97.9 |
| COc1ccc(-c2cnc3c(-c4ccsc4)cnn3c2)cc1 | 78.9 |
| Cn1cnc2cc3c(Nc4cccc(Br)c4)ncnc3cc21 | 98.1 |
| CCOc1cc2ncnc(Nc3cccc(Br)c3)c2cc1OCC | 103 |
| CO[C@H]1[C@@H](OC)C[C@H](C)[C@@H](OC)C2=CC(=O)C=C(NC(=O)/C(C)=C/C=C\[C@H](OC)[C@@H](OC(N)=O)/C(C)=C/[C@@H]1C)C2=O | 104 |
| C[S+]([O-])c1ccc(-c2nc(-c3ccncc3)c(-c3ccc(F)cc3)[nH]2)cc1 (centres unmarked) | 104 |
| CCN1/C(=C/C(C)=O)Sc2ccc(OC)cc21 | 32.9 |
| COc1ccc2c(c[n+](C)c3c4cc5c(cc4ccc23)OCO5)c1OC | 102 |
| O=C(Nc1ccc(Cl)cc1)c1ccccc1NCc1ccncc1 | 106 |
| COc1ccc(Cl)cc1NC(=O)Nc1cc(C)nc2ccccc12 | 99.7 |
| CS(=O)(=O)CCNCc1ccc(-c2ccc3ncnc(Nc4ccc(OCc5cccc(F)c5)c(Cl)c4)c3c2)o1 | 93.1 |
| COc1cc2ncnc(Nc3ccc(OCc4ccccc4)cc3)c2cc1OC | 104 |
| N/C(=N\[N+](=O)[O-])N/N=C\c1ccc(-c2cccc([N+](=O)[O-])c2)o1 | 104 |
| CC(=O)O/N=C1/C(c2c(O)[nH]c3cc(Br)ccc23)=Nc2ccccc21 | 96 |
| COc1cc2ncc(-c3ccccc3)nc2cc1OC | 110 |
| CCC(=O)Nc1ccc2ncnc(Nc3cccc(Br)c3)c2c1 | 95.2 |
| O=C1NC(=O)/C(=C/c2ccc3nccnc3c2)S1 | 31.3 |
| Nc1[nH]nc2nnc(-c3c(-c4ccccc4)nn4ccccc34)cc12 | 101 |
| COc1cc2ncnc(N3CCN(C(=O)Nc4ccc(Oc5ccccc5)cc4)CC3)c2cc1OC | 93.5 |
| CC(C)[C@H](CO)Nc1nc(Nc2cccc(Cl)c2)c2ncn(C(C)C)c2n1 | 49.9 |
| Cn1cc(/C=C2\C(=O)Nc3ccc(S(N)(=O)=O)cc32)c2ccccc21 | 104 |
| CC(C)c1nn(-c2c(Cl)cccc2Cl)c2nc(Cc3ccc(OCCO)cc3)[nH]c(=O)c12 | 99.9 |
| O=c1cc(N2CCOCC2)oc2c1ccc1ccccc12 | 90.5 |
| CN(C)CCCn1cc(C2=C(c3c[nH]c4ccccc34)C(=O)NC2=O)c2ccccc21 | 76 |

Block 3
Target: HLA class I histocompatibility antigen, B alpha chain, allele B*18:01 (Homo sapiens, UniProt P01889)
Effect on: peptide-MHC binding
Form: peptide
Tested at: concentration not given
| Sequence | binding |
| --- | --- |
| DEQSIAEA | active |
| FESVAWSA | active |
| WEAWWTEY | active |

Block 4
Target: CCNB3, cyclin fold, Cln2 fusion (human)
Technique: yeast growth competition, sequencing
Sample: yeast
Notes: strong parent motif
Relative to: not given
Reading: higher = stronger binding
Starting sequence: viral docking peptide; YKVKRRLVFGADD
| Change | normalised enrichment score |
| --- | --- |
| YKVKRRLVFPADD [G10P] | 2.36 |
| YKPKRRLVFGADD [V3P] | 0.751 |
| YKVKRRLVDGADD [F9D] | 0.0678 |
| YKSKRRLVFGADD [V3S] | 0.141 |
| YKVKERLVFGADD [R5E] | 0.184 |
| YKVKRRLVHGADD [F9H] | 0.0094 |
| YKVKARAVFGADD [R5A L7A] | 0.171 |
| YKVKKRLVFGADD [R5K] | 0.772 |

Single results of other studies
CAMK2A: Calcium/calmodulin-dependent protein kinase type II subunit alpha (CAMK2A, Homo sapiens, UniProt Q9UQM7)
UniProt Q9UQM7, sequence (whole entry, looked up): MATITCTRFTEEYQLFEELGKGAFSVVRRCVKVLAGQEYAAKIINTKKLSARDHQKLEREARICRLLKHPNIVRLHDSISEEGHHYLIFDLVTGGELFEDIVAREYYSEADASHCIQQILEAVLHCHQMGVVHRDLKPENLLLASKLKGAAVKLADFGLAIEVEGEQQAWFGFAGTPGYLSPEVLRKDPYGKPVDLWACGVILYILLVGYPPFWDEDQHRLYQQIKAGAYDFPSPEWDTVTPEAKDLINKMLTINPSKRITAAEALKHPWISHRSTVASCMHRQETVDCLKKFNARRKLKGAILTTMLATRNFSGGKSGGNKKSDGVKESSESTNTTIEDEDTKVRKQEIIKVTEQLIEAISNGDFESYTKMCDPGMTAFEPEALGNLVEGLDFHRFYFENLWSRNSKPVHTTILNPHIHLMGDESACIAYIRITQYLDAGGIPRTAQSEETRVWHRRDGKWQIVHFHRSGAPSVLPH
| Substance | target or system | test | system | conditions | scale | quantity | result |
| --- | --- | --- | --- | --- | --- | --- | --- |
| CN[C@@H]1C[C@H]2O[C@@](C)([C@@H]1OC)n1c3ccccc3c3c4c(c5c6ccccc6n2c5c31)C(=O)NC4 | normal-adjacent organoid sample G | CellTiter-Glo |  | 1 µM, replicate mean | relative to: DMSO | viability | 3.3% |
| c1ccc2c(c1)CNC(c1ccc3c(c1)OCO3)c1cccn1-2 (centres unmarked) |  |  | mouse, microsomes or S9 | 2 µM, 0.5 h |  | remaining compound | 0.258% |
| CN(C(=O)Oc1nsnc1N1CCOCC1)C1CCCCCCC1 | mouse MPNST tumor cells | high-content immunofluorescence imaging, item: nuclear SOX9 |  | 10 µM, 12 h, mean of 2 replicates | relative to: DMSO control, higher = more nuclear SOX9 | nuclear SOX9 intensity | 94 % of DMSO |
| CC(C)N(CCC(C(N)=O)(c1ccccc1)c1ccccn1)C(C)C (centres unmarked) | CAMK2A | enzyme activity, inhibitor |  | 10 µM |  | inhibition | -8% |
| CCTAACTACTATAGGCATGTGCGATAGCTTCGTACAGTCTTGATTCGCTTGACGCTGCTG | Centromere-binding protein 1, full length, N-terminal tag (CBF1, Saccharomyces cerevisiae, UniProt P17106, residues 1-351) | protein-binding microarray | double-stranded DNA, one strand shown, in vitro | 0.8 µM, whole 60-bp probe, no competitor | higher = stronger binding | fluorescence intensity | 615 a.u. |
| COc1ccc2c3c1O[C@H]1C[C@@H](O)CC[C@@]31CCN(C)C2 | CAMK2A | enzyme activity, inhibitor |  | 10 µM |  | inhibition | -54% |
| FC(F)(F)c1cccc(N2CCNCC2)c1 | Sarcocystis neurona | parasite growth |  | 10 µM, 96 h, secondary screen |  | inhibition | -45.1% |
| c1ccc2c(c1)ccc1c3ccccc3ccc21 | CAMK2A | enzyme activity, inhibitor |  | 10 µM |  | inhibition | 17% |
| COc1ccc2c(O[C@@H]3C[C@H]4C(=O)N[C@]5(C(=O)O)CC5/C=C\CCCCC[C@H](NC(=O)OC5CCCC5)C(=O)N4C3)cc(-c3csc(NC(=O)C(C)C)n3)nc2c1C (some centres unmarked) | Cyclin-dependent kinase 2 homolog (CRK2, Plasmodium falciparum, UniProt P61075) | cell-free assay, competition with immobilised ligand |  | 1 µM |  | remaining binding | 83% |
| CCCOc1ccc2[nH]cc(C3=CCNCC3)c2n1 | mouse MPNST tumor cells | high-content immunofluorescence imaging, item: nuclear SOX9 |  | 10 µM, 12 h, mean of 2 replicates | relative to: DMSO control, higher = more nuclear SOX9 | nuclear SOX9 intensity | 117 % of DMSO |
| C=CCCC(CN1C[C@H]2CC=CC[C@H]2C1)Oc1ncc(Cl)cn1 (some centres unmarked) |  |  | mouse, microsomes or S9 | 2 µM, 0.5 h |  | remaining compound | 0.0378% |
| Cc1cc(NC(=O)c2cccc(S(F)(F)(F)(F)F)c2)cc(-n2ccn3nc(-c4cccnc4)cc23)c1 | Calcium-dependent protein kinase 1 (CDPK1, Plasmodium falciparum, UniProt P62344) | cell-free assay, competition with immobilised ligand |  | 1 µM |  | remaining binding | 95.1% |

Some of these lines once more (block 3):
| Sequence | binding |
| --- | --- |
| DEQSIAEA | active |
| FESVAWSA | active |
| WEAWWTEY | active |
